Published values of several laboratories.
Each numbered part is a random draw from the data of one study; scales do not carry over between parts.

Set 1 — technique: universal PBM; form: double-stranded DNA, one strand shown; sample: in vitro; tested at: not given; direction: higher = stronger binding; quantity: E-score
Target: Sal-like protein 4, full length isoform B (SALL4, Homo sapiens, UniProt Q9UJQ4-2, residues 1-616)
Setting: 8-mer, flanks averaged, mean of replicates
Residues (chain): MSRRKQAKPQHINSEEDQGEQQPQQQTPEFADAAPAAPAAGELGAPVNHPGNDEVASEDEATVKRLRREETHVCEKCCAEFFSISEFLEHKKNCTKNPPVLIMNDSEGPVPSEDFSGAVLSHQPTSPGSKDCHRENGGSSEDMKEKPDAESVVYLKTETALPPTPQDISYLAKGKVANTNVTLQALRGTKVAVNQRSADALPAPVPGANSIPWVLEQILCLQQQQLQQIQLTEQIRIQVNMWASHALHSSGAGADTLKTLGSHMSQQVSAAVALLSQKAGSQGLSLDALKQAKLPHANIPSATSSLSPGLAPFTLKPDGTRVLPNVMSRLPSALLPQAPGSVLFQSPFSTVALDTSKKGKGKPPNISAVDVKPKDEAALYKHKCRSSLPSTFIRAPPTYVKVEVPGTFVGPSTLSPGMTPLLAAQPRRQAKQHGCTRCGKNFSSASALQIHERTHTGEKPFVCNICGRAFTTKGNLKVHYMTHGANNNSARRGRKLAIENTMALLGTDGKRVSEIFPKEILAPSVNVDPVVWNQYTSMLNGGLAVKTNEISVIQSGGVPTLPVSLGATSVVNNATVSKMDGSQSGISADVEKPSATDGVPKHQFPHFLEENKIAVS
CCGCAAGA: -0.101
GATTTTTA: 0.241
GTGGCGAA: -0.113
ACACCACG: -0.103
GCACTACA: 0.0169
GCACTGGC: -0.2
AGATTACG: 0.0588
AAGGACGA: -0.0538
ACAAATTC: 0.221
AAAAGTAT: 0.289
AGCCGACT: -0.278
AAGAATAA: 0.3
ATTGTGGG: 0.0308
CTCCATGC: -0.106
AGTGGGTC: -0.285
GAGCACAC: -0.157
AGTTACAC: 0.101
ATGAAAAC: 0.327
GAAACTGC: -0.155
CCATGCTC: -0.179
CTCTTTGA: -0.0129
GCTGAGCC: -0.241
CAAATTGC: 0.142

Set 2 — technique: RNA Bind-n-Seq; form: RNA; sample: in vitro; tested at: 200 nM; setting: whole 134-nt RNA, ends assumed; with: 150 mM LiCl; reference: input library; direction: higher = stronger binding; quantity: log2 enrichment; library: 7-deaza-guanosine replaces G
Target: Ras GTPase-activating protein-binding protein 1, full length (G3BP1, Homo sapiens, UniProt Q13283)
UniProt Q13283, sequence (whole entry, looked up): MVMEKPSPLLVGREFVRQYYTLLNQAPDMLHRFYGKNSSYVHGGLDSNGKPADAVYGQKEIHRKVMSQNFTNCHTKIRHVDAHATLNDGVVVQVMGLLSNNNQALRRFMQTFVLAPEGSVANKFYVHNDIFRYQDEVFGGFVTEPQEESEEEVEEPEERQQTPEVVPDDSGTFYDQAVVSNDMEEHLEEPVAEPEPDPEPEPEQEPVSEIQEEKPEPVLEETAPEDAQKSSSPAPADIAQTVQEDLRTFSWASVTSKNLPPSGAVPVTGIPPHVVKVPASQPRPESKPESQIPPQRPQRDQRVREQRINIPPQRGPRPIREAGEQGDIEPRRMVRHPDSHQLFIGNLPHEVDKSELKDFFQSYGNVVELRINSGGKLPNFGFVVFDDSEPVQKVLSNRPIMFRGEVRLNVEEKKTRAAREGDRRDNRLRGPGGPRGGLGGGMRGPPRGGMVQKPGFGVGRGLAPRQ
Shared flanks, not repeated: GGGAGUUCUACAGUCCGACGAUC … UGGAAUUCUCGGGUGUCAAGG
AGUCCUGUGCUACACAUCGUAUGUACCGAAUCGGGCCCCGGGCCCCGGGGCCCCGGGAAAGUAUUAUGUUACGCCGUUCGGAUCUGCACU: -1.07
AGUCCUGUGCUACACAUCGUAUGUACCGAAUCGGGAAAAAGGGUUUGGGUUUUUGGGAAAGUAUUAUGUUACGCCGUUCGGAUCUGCACU: -1.65
ACCAUGCAGGUGGGCAUCUUUGGGAAGUGGGGCAAGGGGGGGAUAGGGAGGGAGGUAACACUUUGGGAACAGGUGGUCCCAGGUCGUUUC: 0.332
CAAGUCCUGUGCUACACAUCGUAUGUACCGAAUCGGGUUUUUGGGAGGGUUUGGGAAAGUAUUAUGUUACGCCGUUCGGAUCUGCACUUC: -0.263
CUCAAGUCCUGUGCUACACAUCGUAUGUACCGAAUCGGUUUGGUUUGGUUUGGAAAGUAUUAUGUUACGCCGUUCGGAUCUGCACUUCCA: 0.209
UGGCCCUGGUGGCAUGCGGGGAAGAAGAGGUGGCCUCAUGGAUCGUGGUGGUCCCGGUGGAAUGUUCAGAGGUGGCCGUGGUGGAGACAG: 0.369
GUCCUGUGCUACACAUCGUAUGUACCGAAUCGGAAAAAAAGGUUUUUGGAAAAAAAGGAAAGUAUUAUGUUACGCCGUUCGGAUCUGCAC: -1.6
UCAAGUCCUGUGCUACACAUCGUAUGUACCGAAUCGGGAAGGGGAAGGGGAAGGGAAAGUAUUAUGUUACGCCGUUCGGAUCUGCACUUC: -0.221
CUCAAGUCCUGUGCUACACAUCGUAUGUACCGAAUCGGGGAAGGAAGGGGAAGGAAAGUAUUAUGUUACGCCGUUCGGAUCUGCACUUCC: -0.563
ACAAUGCAGGUGGGCAUCUUUGGGAAGUGGGGCAAGGGGGGGAUAGGGAGGGGGGUAACACUUUGGGAACAGGUGGUCCCAGGUCGUUUC: 0.239
GUCCUGUGCUACACAUCGUAUGUACCGAAUCGGGAAAAAGGGAAAAAGGGAAAAAGGGAAAGUAUUAUGUUACGCCGUUCGGAUCUGCAC: -0.0871

Set 3 — technique: protein binding microarray; form: double-stranded DNA, one strand shown; sample: in vitro; tested at: not given; reference: not given; direction: higher = stronger binding; quantity: E-score
Target: Histone acetyltransferase KAT6A, both winged helices, GST fusion (KAT6A, Homo sapiens, UniProt Q92794, residues 1-181)
Setting: 8-mer, flanks averaged, mean of 2 arrays, mostly near background
Target sequence (chain): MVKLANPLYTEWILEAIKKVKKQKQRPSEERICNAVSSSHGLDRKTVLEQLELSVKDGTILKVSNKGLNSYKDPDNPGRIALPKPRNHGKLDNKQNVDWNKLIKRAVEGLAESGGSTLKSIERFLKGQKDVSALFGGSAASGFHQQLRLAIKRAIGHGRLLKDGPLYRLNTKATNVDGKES
AAGGTTCC: -0.0672
GACTATGC: -0.0152
ATAAGTGC: -0.00261
GGGCTCCA: -0.139
AACGCTGC: 0.038
ACAAAAGG: -0.0323
ATAAACTA: -0.0389
ACGGCGGA: 0.243
ACATTTAA: -0.00773
GCTGAACC: 0.0328
AATAGCCA: -0.234
ATTAAAAC: 0.0148
CACATCTG: -0.123
GCGCCCCA: 0.2
AGCCCGGA: 0.129
ATTGTACC: -0.0228
AAGCTATT: -0.111
GTTGTGGA: -0.107
GGGGGTAC: -0.0217
CCGTAGCG: 0.303
CACGGAAA: 0.284
GTGATGCA: -0.177
GGCTCCTA: -0.0782
ACGGGGGG: 0.0438

Set 4 — technique: competition protein-binding microarray; form: double-stranded DNA, one strand shown; sample: in vitro; tested at: 2 µM; with: Cbf1 competitor, 0.05 µM; direction: higher = stronger binding; quantity: fluorescence intensity; shared flanks, not repeated: … GTCTTGATTCGCTTGACGCTGCTG
Target: Phosphate system positive regulatory protein PHO4, full length, GST-tagged (PHO4, Saccharomyces cerevisiae, UniProt P07270, residues 1-312)
Setting: whole 60-bp probe, lowest competitor level
Construct (chain): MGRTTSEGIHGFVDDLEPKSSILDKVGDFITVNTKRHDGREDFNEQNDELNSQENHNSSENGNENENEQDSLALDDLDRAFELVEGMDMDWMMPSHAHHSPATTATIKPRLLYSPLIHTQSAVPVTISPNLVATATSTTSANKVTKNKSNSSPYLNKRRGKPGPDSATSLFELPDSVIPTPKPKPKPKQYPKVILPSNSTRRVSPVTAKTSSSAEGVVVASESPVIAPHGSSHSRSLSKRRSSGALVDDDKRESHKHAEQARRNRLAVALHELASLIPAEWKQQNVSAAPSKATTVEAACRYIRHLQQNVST
AGTCCGGTGTGTAGGTGCATGACAGATTGGTCCGGC: 5340 a.u.
GTCAAGCTGAAATCTCACGTGGGTACAGACGGGGAA: 15100 a.u.
CATACCCAACCTTGCGATGTGGGTGAAGATATTTGT: 4770 a.u.
CTTTCCCGATCTTGCGTGGTGGGTGTAGCACATTTG: 6780 a.u.
AGTGTCTCCTCAGACGACGTGTCGGTTTTGTATATC: 6410 a.u.
CACCGGATATTGAATCACATGGGCTTTCAGATTTCA: 9070 a.u.
CCGGTTGATAATACGCAGGTGACGTTTGATAATGTG: 6020 a.u.
CTTTCCCGATCTTCTCACGTGTTTTTAGCACATTTG: 13700 a.u.
CATACCCAACCTTGAGGTGTGGGTGAAGATATTTGT: 6170 a.u.
TCAAGAAAAATTCATCACCTGACTGCAAAATAAAGC: 3770 a.u.
CTATGCAAGTTATGCCAGGTGACAGTGTTGAAATGG: 6370 a.u.
AAAGCGGTAATTTGACATGTGGGTGCAGATATCTAT: 12200 a.u.
TTGGGCTGGTGCGATTTCGTGGGTAGTATTCAGGAC: 5430 a.u.
AGTTTTCCTTAGCACAGCATGACAATAACCGGGAAT: 5620 a.u.
CATACCCAACCTTGCCTCGTGGGTGAAGATATTTGT: 11600 a.u.
CGGGGTTAAGTTTGTCACTCTACTTGCTTGCAGCAG: 3470 a.u.
TAGAACCAGTATCCACACGTGGTGACAAAAACTCGA: 16400 a.u.

Set 5 — technique: protein-binding microarray; form: double-stranded DNA, one strand shown; sample: in vitro; tested at: 940 nM top; setting: 60-bp whole probe; with: salmon DNA 0.4 mg/ml; reference: random background probes; direction: higher = stronger binding; quantity: fitted relative affinity; shared flanks, not repeated: GCCTAGCAC … GTCTTGATTCGCTTGACGCTGCTG
Target: Interferon regulatory factor 5, full length, phosphomimetic (IRF5, Homo sapiens, UniProt Q13568-2, residues 1-514, S451D/S453D/S456D/S462D)
TTATGTCTCCTTATCCTTTAGTGCTAG: 1.38 z-score
TGCCCTCTCCATACTTCCCAGTGCTAG: 1.13 z-score
TCAAATTGTCTTTTCACACTGTGCTAG: 0.461 z-score
CTCCCCCTCCCCCTCAGATCGTGCTAG: -0.0582 z-score
TTACGTATCGGGTTTCGGTTAGTGCTA: 8.2 z-score
AAGGTATTATTTATTGTAGCGTGCTAG: -0.309 z-score
TTAGGACTGGGTCTCGGTTGGTGCTAG: 0.999 z-score
TTAGGTATCTGGTATCGGTTAGTGCTA: 5.31 z-score
ACCTCTCACGCATCTGAAACCGTGCTA: 1.02 z-score
TCAGGTCTCCTTTTCCTTTAGTGCTAG: 0.809 z-score
ATACCTTAGGTTTTCTGGTTGTGCTAG: 0.284 z-score
TTAGAACTGAGTTTCGATTGGTGCTAG: 7.63 z-score
GACGATATCCGGACTGGAGACGTGCTA: 0.0644 z-score
TCAGGACTCGGGTCTCCCACTGTGCTA: -0.402 z-score
CTCTACATGGGTATAGAGTAGTGCTAG: -0.63 z-score
TTAGATCTCAGTATGGATTAGTGCTAG: 0.13 z-score
GACGGTCTCGGTATCTGGACGTGCTAG: 3.59 z-score
GACGGACTGCTTCACCTGACGTGCTAG: -0.552 z-score
GAAGGTCTCGGTTTCGGGACGTGCTAG: 4.91 z-score

Some of these lines once more (set 3):
ATTGTACC: -0.0228
AACGCTGC: 0.038
CACGGAAA: 0.284
AATAGCCA: -0.234
GGCTCCTA: -0.0782
ACGGCGGA: 0.243
GGGCTCCA: -0.139
ACGGGGGG: 0.0438
CACATCTG: -0.123
ATTAAAAC: 0.0148
GTGATGCA: -0.177
AGCCCGGA: 0.129
ATAAGTGC: -0.00261
ACAAAAGG: -0.0323
